Published values gathered from unrelated publications.
Every numbered part comes from another study and shows a few of its results, in no order. Positions count from the first letter of the parent shown.

Set 1
Target: CCNB2, cyclin fold, Cln2 fusion (human)
Method: yeast growth competition, sequencing
Medium: yeast
Setting: weak parent motif
Reference: not given
Reading: higher = stronger binding
Starting sequence: viral docking peptide; KGVKRKLFAEDSS
Change | normalised enrichment score
KGVKRKLFAPDSS [E10P] | 0.987
KGVKRKLIAEDSS [F8I] | 0.416
KGVIRKLFAEDSS [K4I] | 0.777
KGVKRKLFAEKSS [D11K] | 0.523
KGVKRKLFVEDSS [A9V] | 1.09
KGVKRALFAEDSS [K6A] | 0.614
KGVKRLLFAEDSS [K6L] | 0.481
KIVKRKLFAEDSS [G2I] | 0.84
KGVKRKLKAEDSS [F8K] | 0.497
KGVKRKVFAEDSS [L7V] | 0.525
KGVDRKLFAEDSS [K4D] | -0.116
KGVQRKLFAEDSS [K4Q] | 0.406
KGVKRKPFAEDSS [L7P] | 0.372
KGVKRKLEAEDSS [F8E] | 0.838
KGVKRKLFDEDSS [A9D] | 0.969
KGVKRKLFAQDSS [E10Q] | 0.5
KGVKRKLFHEDSS [A9H] | 0.918
KGVKHKLFAEDSS [R5H] | 0.398
KGVKRKDFAEDSS [L7D] | 0.0784
KGTKRKLFAEDSS [V3T] | 0.247
KGVKRKLWAEDSS [F8W] | 0.231

Set 2
Target: RNA binding protein fox-1 homolog 2, RRM domain, GST-SBP tag (RBFOX2, Homo sapiens, UniProt O43251-10, residues 100-194)
Method: RNA Bind-n-Seq
Form: RNA
Medium: in vitro
Concentration: 365 nM
Setting: natural RNA segment, single round, ends assumed
Reference: no-protein control
Reading: higher = stronger binding
All sequences stand within: GGGAGUUCUACAGUCCGACGAUC … UGGAAUUCUCGGGUGCCAA
Residues (chain): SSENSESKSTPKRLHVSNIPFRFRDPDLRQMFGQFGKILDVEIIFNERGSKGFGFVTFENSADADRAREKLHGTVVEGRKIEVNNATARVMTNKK
Oligonucleotide | RBNS enrichment (R)
UUCUCCUCUCCUGGCCCUGCUCCCAGAUUGCAGCCUCCCUGCAGUGUCUGCCCUUGCCACCUCCCAGCCUGCUGCAUGCAUGUGCAGCAUGGGCUUUUGCUCCAUCACCG | 8.85
UUUAUUUUGGAAUUGAACUAUUAUUAAAUUGUAUCUAAUCCUGGAUUACAGUUUAAUUAAUUAUUCUUAGUGCUUAAGGCUUCAUAAAGUAAUUUUUCCAACCUUUUUUU | 0.647
UGGCCUCCUGCUCCAAGACCCUCCCGAGUCCCCGGAAAUGGAGAGUGCAGUUCUUGGGCCCAGCCUGGCCUUCGCCAUGAGUUUGGGGAGCGAGACCCCACCUGAGACAG | 0.354
CUCAUUUGUCCAAAUUUCUGGGCUCAGCGCUUGGGAGGGCAGGAGCCCUGGCACUAAUGCUGUACAGGUUUUUUUCCUGUUAGGAGAGCUGAGGCCAGCUGCCCACUGAG | 0.368
GCAGUCAGGUUGUUUACCAGCCCUUUGCACCUCCCCAGGCAGAGGGAGCCUCUGUUCUGGUGGGGGCCACCUCCCUCAGAGGCUCUGCUAGCCACACUCCGUGGCCCACC | 0.196
CAGUUCACUCUCCUGACUGUUCAGAAGCAUUUUGCUCUCUUUUGCAUUUUCUUUUACCUUUUUUUUCUAAUACUGCUUUGGUACUAGCCAGUGUGGGGAAGAGAUACAGU | 3.19
CCAGCCACUCUCGGGCCCCACUCCCACAUCAUCUCAGAAACCCUUCAGCCCUCGCAACUCGCCCCUCCGGGCCCCCCCACCAGGCACAACCAUCCCCGGGGCCAGCCGGG | 1.13
AGGGAGUCCCCUCUUAGGACAGGCACUGCCCAGCAGCAAGGGCAGCAGAGUUGGGUGCUAAGAUCCUGAGGAGCUCGAGGUUUCGAGCUGGCUUUAGACAUUGGUGGGAC | 0.665

Set 3
Target: Centromere-binding protein 1, full length, N-terminal tag (CBF1, Saccharomyces cerevisiae, UniProt P17106, residues 1-351)
Sequence of UniProt P17106 (whole entry, looked up): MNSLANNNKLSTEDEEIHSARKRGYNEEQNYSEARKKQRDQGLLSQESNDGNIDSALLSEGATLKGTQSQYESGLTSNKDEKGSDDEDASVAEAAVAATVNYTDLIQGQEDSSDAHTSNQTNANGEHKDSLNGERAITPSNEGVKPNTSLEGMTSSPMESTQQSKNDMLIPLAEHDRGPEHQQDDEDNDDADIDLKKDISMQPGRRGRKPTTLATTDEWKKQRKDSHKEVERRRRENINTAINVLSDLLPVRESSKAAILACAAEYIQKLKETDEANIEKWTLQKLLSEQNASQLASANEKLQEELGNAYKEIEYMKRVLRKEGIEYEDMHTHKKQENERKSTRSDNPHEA
Method: protein-binding microarray
Form: double-stranded DNA, one strand shown
Medium: in vitro
Concentration: 0.8 µM
Setting: whole 60-bp probe, no competitor
Reading: higher = stronger binding
All sequences stand within: … GTCTTGATTCGCTTGACGCTGCTG
Oligonucleotide | fluorescence intensity
GAAATATGTAATAGACATGTGATACATTTTTATTAG | 3110 a.u.
CTAGGTAAACCGAGTCACGAAGCTCAATCTTTTTTC | 584 a.u.
CTAGCTCAACATAGACACGTTATGGACGGGCATTTC | 508 a.u.
GAAAGAACTATAAACACGGTGACGAAAAAGAATTAG | 537 a.u.
CTAGTGATTTAATGATTCGTGACTATTTCTTTGTTC | 704 a.u.
TGTACGAAGCTATGTCACGGAGATATAGTAGTTAGG | 564 a.u.
CTATGAAGCATCTGGATCACCAGTACAAACAGTTTC | 510 a.u.
TGTACGAAGCTATAAGGTGTGACTATAGTAGTTAGG | 618 a.u.

Set 4
Target: Histone acetyltransferase KAT6A, winged helix 1, GST fusion (KAT6A, Homo sapiens, UniProt Q92794, residues 1-85)
Method: protein binding microarray
Form: double-stranded DNA, one strand shown
Medium: in vitro
Concentration: not given
Setting: 8-mer, flanks averaged, mean of 2 arrays, mostly near background
Reference: not given
Reading: higher = stronger binding
Target sequence (chain): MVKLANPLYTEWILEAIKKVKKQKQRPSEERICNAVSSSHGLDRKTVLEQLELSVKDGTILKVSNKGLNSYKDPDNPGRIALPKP
Oligonucleotide | E-score
AGAGTTGC | 0.0768
CGTTCAAA | 0.0248
GACCCTTA | 0.0829
GCTCCTCC | -0.0497
AAGACTTG | -0.0175
ATGGGCGC | 0.185
GGAACAGA | -0.113
ACTGCCAA | -0.121

Single results of other studies
Cell line: L929
Effect on: necroptosis protection
Method: CCK-8
Added: TNF-α-induced
SMILES | concentration | viability
CC(C)(C)c1nc(-c2cccc(NS(=O)(=O)c3c(F)cccc3F)c2F)c(-c2ccnc(N)n2)s1 | 25 µM | 71.8%
N#Cc1c(Oc2ccc(F)c(NC(=O)Cc3cccc(C(F)(F)F)c3)c2)ccc2nc(NC(=O)C3CC3)sc12 | 10 µM | 86.3%
